Published values gathered from unrelated publications.
Each line is one published result; not all experiments were run side by side. ± gives the spread as reported.

CCCC[C@H](NC(=O)CNC(=O)CNC(=O)CN1CCN(CC(=O)O)CCN(CC(=O)O)CCN(CC(=O)O)CC1)C(=O)N[C@H]1CC(=O)NCCCC[C@@H](C(N)=O)NC(=O)[C@H](Cc2c[nH]c3ccccc23)NC(=O)[C@H](CCCNC(=N)N)NC(=O)[C@@H](Cc2ccccc2)NC(=O)[C@H](Cc2c[nH]cn2)NC1=O [copper-64 labelled] — uptake ratio (female C57 mouse, B16/F1 melanoma; intravenous, 0.037 MBq, 4 h; baseline: tumour over stomach): 1.03
CN(C)c1cc(CN2CCCCC2)c(O)c2c1C[C@H]1C[C@H]3[C@H](N(C)C)C(O)=C(C(N)=O)C(=O)[C@@]3(O)C(O)=C1C2=O — t1/2 (cynomolgus monkey, plasma; oral, 5 mg/kg): 4.7 h
CN1CCC[C@]1(C)/C=C/S(=O)(=O)NC(=O)Nc1c2c(cc3c1CCC3)CCC2 — accumulation ratio AUC(0-tau) (human, plasma; oral, 12.5 mg twice daily, 14 days, multiple ascending dose; baseline: day 14 over day 1): 1.6
Cc1ccc(OCC(=O)O)cc1 — AUC(0-last) (Sprague-Dawley rat, male, plasma; oral gavage, 30 mg/kg of parent drug): 14800 ± 3210 ng·h/mL
CCC(C)n1c(C(=O)Nc2cnc(C(=O)NC)n(CC(C)C)c2=O)ncc(NC(=O)c2ncc(NC(=O)c3ccccc3)c(=O)n2Cc2ccc(OC)cc2)c1=O (stereo not shown) — parent compound remaining (human liver microsomes; 2 µM, 40 min, pH 7.4, 37 °C): 91%
CC(C)(Sc1cc[n+]([O-])cc1-c1ccc(C#N)c2ccccc12)C(=O)OC1OC(C(=O)O)C(O)C(O)C1O (stereo not shown) — Cmax increase (adult men, plasma; oral, 15 mg verinurad, mild renal impairment; baseline: normal renal function): 58%
CC(=O)N[C@H](CCNC(=O)c1cc(NC(=O)c2cc(NC(=O)c3cc(NC(=O)c4nccn4C)cn3C)cn2C)cn1C)C(=O)Nc1cn(C)c(C(=O)Nc2cc(C(=O)Nc3cc(C(=O)Nc4cc(C(=O)NCCCN(C)CCCN[14C](=O)c5cccc([14C](=O)O)c5)n(C)c4)n(C)c3)n(C)c2)n1 — tissue concentration ratio (NSG male mice, LNCaP xenograft, liver; intraperitoneal, 20 nmol per animal, 24 h; baseline: LNCaP-grafted over naive mice): ~2 fold
CC[C@H](C)[C@H](NC(=O)[C@H](Cc1ccccc1)NC(=O)[C@H](CCN)NC(=O)[C@H](CCCNC(=N)N)NC(=O)[C@H](Cc1ccccc1)NC(=O)[C@H](Cc1ccccc1)NC(=O)[C@H](CCCCN)NC(=O)[C@H](CO)NC(=O)[C@H](CC(C)C)NC(=O)[C@H](CCCNC(=N)N)NC(=O)[C@H](CCSC)NC(=O)[C@H](C)N)C(=O)N[C@@H](CC(C)C)C(=O)N[C@@H](CN)C(=O)N[C@@H](CCCNC(=N)N)C(=O)N[C@@H](CCCCN)C(=O)N[C@@H](CCCCN)C(=O)O — helicity (circular dichroism; 20% TFE in PBS; 200 µM, pH 7.4, 25 °C): 5.1%
CCCC(CCC)NC(=O)c1ccc(OC2OC(C(=O)O)C(O)C(O)C2O)c(OC)c1 (stereo not shown) — Tmax (female Sprague-Dawley rat, plasma; oral, 20 mg/kg of parent drug): 2.2 h
Cc1cc2c(NC(=O)N[C@@H]3CC(C)(C)Oc4c(OC(F)(F)F)cccc43)cccc2cn1 — body temperature change (telemetry; male Sprague-Dawley rats; dose not given): ~-2 °C
Cc1nc(C)c(C=[N+]([O-])C(C)(C)C)nc1C — concentration (Sprague-Dawley rat, both sexes, brain; oral, 45 mg/kg, 10 min): 28200 ng/g
CN[C@@H]1[C@H](O)[C@H](NC)[C@H]2O[C@]3(O)[C@H](O[C@@H]2[C@H]1O)O[C@H](C)C[C@@]3(O)CNCc1ccc(Cl)cc1 — volume of distribution (rat; intravenous, 10 mg/kg): 1.45 L/kg
CCc1noc(CC)c1C(=O)O[C@H]1C(C)=C[C@]23C(=O)[C@@H](C=C(CO)[C@@H](O)[C@]12O)[C@H]1[C@@H](C[C@H]3C)C1(C)C — 20-isomer formed (phosphate buffer; 24 h, pH 7.4, 37 °C): 25%
CC(C)[C@H](NC(=O)[C@@H]1CCCN1C(=O)[C@H](CCCNC(=N)N)NC(=O)[C@H](CS)NC(=O)[C@H](Cc1c[nH]c2ccccc12)NC(=O)[C@H](CCCNC(=N)N)NC(=O)[C@@H](Cc1ccccc1)NC(=O)[C@H](Cc1c[nH]cn1)NC(=O)[C@H](CCC(=O)O)NC(=O)[C@H](CS)NC(=O)[C@H](CS)NC(=O)CNC(=O)[C@@H]1CC(=O)N[C@@H](CCCNC(=N)N)C(=O)NCC(=O)N[C@@H](CC(=O)O)C(=O)N[C@H](Cc2ccc(O)cc2)C(=O)N1)C(N)=O [technetium-99m labelled] — tissue uptake (C57 mouse, female, B16/F1 melanoma, spleen; intravenous, 0.037 MBq, 4 h): 1.18 ± 0.43 %ID/g
Cn1c(=O)oc2ccc(-c3ccc(CC(C#N)NC(=O)C4CNCCCO4)c(F)c3)cc21 (stereo not shown) — subjects with TEAE (item: alanine aminotransferase increased; human; 40 mg single dose, fasted): 16.7%
[11CH3]c1ccc2nc(C3CCC3)n(-c3ccc4[nH]ncc4c3)c2n1 — absorbed radiation dose (human female, liver): 14.7 µSv/MBq
CC(C)c1cnc(-c2cc(Cl)ccc2F)cc1Nc1ccncc1C(=O)NC(CO)CO — patients with related SAE (item: hepatic haemorrhage; human patients; oral, dose not given, grade 4): 0%
CC[C@H](C)[C@H](NC(=O)[C@H](CCCNC(=N)N)NC(=O)[C@@H](NC(=O)CNC(C)=O)[C@@H](C)O)C(=O)N[C@H](C(=O)N[C@@H](Cc1ccc(O)cc1)C(=O)N[C@@H](CC(=O)O)C(=O)N[C@@H](CCCNC(=N)N)C(=O)N[C@@]1(C)CCCC=CCCC[C@@](C)(C(=O)N[C@@H](CS)C(=O)N[C@@H](CCCNC(=N)N)C(=O)N[C@@H](CC(N)=O)C(N)=O)NC(=O)[C@H](CCSC)NC(=O)[C@H](CC(C)C)NC(=O)[C@H](Cc2ccccc2)NC1=O)[C@@H](C)CC — helicity (CD spectroscopy; sodium phosphate buffer; 25 to 100 µM, pH 7.4, 25 °C): 44%
NC(=S)N/N=C/c1ccccn1 — peak current ratio ipa/ipc (cyclic voltammetry; DMF; Cu2+ complex): 0.21
Cc1cc(O)cc(O)c1C(=O)c1c2c3c(c(O)cc(C)c3oc1=O)C(=O)c1c(O)cc(O)cc1-2 — efflux ratio (Caco-2 monolayer; 100 µM, 3 h, pH 7.4; baseline: AP to BL over BL to AP): 31.3
N=C(N)NCCC[C@@H]1NC(=O)[C@H](Cc2c[nH]c3ccccc23)NC(=O)[C@@H](CC2CCCCC2)NC(=O)[C@@H]2CCCN2C(=O)[C@@H](NC(=O)CCc2ccccc2)CCCNC1=O — Cmax (C57BL/6J mice, brain; intravenous, 1 mg/kg): 77 ng/g
CCCCCCCCCCCCCCCC(=O)N[C@@H](CCCCN)C(=O)N[C@@H](CCCCN)C(=O)N[C@@H](CO)C(=O)N[C@@H](CCCNC(=N)N)C(=O)N[C@@H](C)C(=O)N[C@@H](CC(C)C)C(=O)N[C@@H](Cc1ccccc1)C(N)=O — prothrombin time (cynomolgus monkey, female; 10 mg/kg, day 1): 11 ± 0.3 s
CC(C)C[C@H](NC(=O)[C@H](CCCNC(=N)N)NC(=O)[C@H](CCC(N)=O)NC(=O)[C@@H](NC(=O)[C@H](C)NC(=O)[C@@H]1CSSC[C@H](NC(=O)[C@@H](N)CCCCN)C(=O)N[C@@H](CC(N)=O)C(=O)N[C@@H]([C@@H](C)O)C(=O)N[C@@H](C)C(=O)N[C@@H]([C@@H](C)O)C(=O)N1)[C@@H](C)O)C(=O)N[C@@H](C)C(=O)N[C@@H](CC(N)=O)C(=O)N[C@@H](Cc1ccccc1)C(=O)N[C@@H](CC(C)C)C(=O)N[C@H](C(=O)N[C@@H](CCCNC(=N)N)C(=O)N[C@@H](CO)C(=O)N[C@@H](CO)C(=O)N[C@@H](CC(N)=O)C(=O)N[C@@H](CC(N)=O)C(=O)N[C@@H](Cc1ccccc1)C(=O)NCC(=O)N[C@@H](C)C(=O)N1CCC[C@H]1C(=O)N[C@@H](CC(C)C)C(=O)N[C@@H](CO)C(=O)N[C@@H](CO)C(=O)N[C@H](C(=O)N[C@@H](CC(N)=O)C(=O)N[C@H](C(=O)NCC(=O)N[C@@H](CO)C(=O)N[C@@H](CC(N)=O)C(=O)N[C@H](C(=O)N[C@@H](Cc1ccc(O)cc1)C(N)=O)[C@@H](C)O)C(C)C)[C@@H](C)O)C(C)C — loss from soluble fraction (PBS; 500 µM, 24 h, pH 7.4, together with: equimolar insulin; baseline: time zero): < 17%
O=c1c2cc([N+](=O)[O-])ccc2n(CCN2CCCCC2)n1Cc1ccccc1 — CC50 (resazurin; peritoneal macrophages, BALB/c mice; 48 h, 10% FBS): 12.1 ± 5.9 µM
O=C(O)[C@H]1O[C@@H](O[C@H](C[C@H]2c3c(F)cccc3-c3cncn32)[C@H]2CC[C@H](O)CC2)[C@H](O)[C@@H](O)[C@@H]1O — AUC(0-48 h) (human, plasma; oral, 200 mg, 0 to 48 h pooled): 36.4 µM·h
COC(=O)c1ccc(CCc2cc3cc4nc(c(OC)c5[nH]c(cc6nc(cc2[nH]3)CC6(C)C)cc5CCCNC(=O)OC(C)(C)C)C(=O)C4(C)C)cc1 — integrated Qy/B absorption ratio (DMF; room temperature): 0.23
Fc1ccc(NCc2cn(-c3ccccc3)nc2-c2ccc(OCc3ccccc3)cc2)cc1Cl — ulcer severity index (rat, gastric mucosa; oral, 60 mg/kg, 17 h; baseline: control score subtracted): 0.82 ± 0.35
NS(=O)(=O)c1ccc(N2N=C(C(F)(F)F)CC2c2ccc(F)cc2F)cc1 (stereo not shown) — Tlast (Beagle dog, both sexes, plasma; oral, 1 mg/kg, single dose, median): 108 h

Repeated from above:
CC(C)C[C@H](NC(=O)[C@H](CCCNC(=N)N)NC(=O)[C@H](CCC(N)=O)NC(=O)[C@@H](NC(=O)[C@H](C)NC(=O)[C@@H]1CSSC[C@H](NC(=O)[C@@H](N)CCCCN)C(=O)N[C@@H](CC(N)=O)C(=O)N[C@@H]([C@@H](C)O)C(=O)N[C@@H](C)C(=O)N[C@@H]([C@@H](C)O)C(=O)N1)[C@@H](C)O)C(=O)N[C@@H](C)C(=O)N[C@@H](CC(N)=O)C(=O)N[C@@H](Cc1ccccc1)C(=O)N[C@@H](CC(C)C)C(=O)N[C@H](C(=O)N[C@@H](CCCNC(=N)N)C(=O)N[C@@H](CO)C(=O)N[C@@H](CO)C(=O)N[C@@H](CC(N)=O)C(=O)N[C@@H](CC(N)=O)C(=O)N[C@@H](Cc1ccccc1)C(=O)NCC(=O)N[C@@H](C)C(=O)N1CCC[C@H]1C(=O)N[C@@H](CC(C)C)C(=O)N[C@@H](CO)C(=O)N[C@@H](CO)C(=O)N[C@H](C(=O)N[C@@H](CC(N)=O)C(=O)N[C@H](C(=O)NCC(=O)N[C@@H](CO)C(=O)N[C@@H](CC(N)=O)C(=O)N[C@H](C(=O)N[C@@H](Cc1ccc(O)cc1)C(N)=O)[C@@H](C)O)C(C)C)[C@@H](C)O)C(C)C — loss from soluble fraction (PBS; 500 µM, 24 h, pH 7.4, together with: equimolar insulin; baseline: time zero): < 17%
Cn1c(=O)oc2ccc(-c3ccc(CC(C#N)NC(=O)C4CNCCCO4)c(F)c3)cc21 (stereo not shown) — subjects with TEAE (item: alanine aminotransferase increased; human; 40 mg single dose, fasted): 16.7%
CC[C@H](C)[C@H](NC(=O)[C@H](Cc1ccccc1)NC(=O)[C@H](CCN)NC(=O)[C@H](CCCNC(=N)N)NC(=O)[C@H](Cc1ccccc1)NC(=O)[C@H](Cc1ccccc1)NC(=O)[C@H](CCCCN)NC(=O)[C@H](CO)NC(=O)[C@H](CC(C)C)NC(=O)[C@H](CCCNC(=N)N)NC(=O)[C@H](CCSC)NC(=O)[C@H](C)N)C(=O)N[C@@H](CC(C)C)C(=O)N[C@@H](CN)C(=O)N[C@@H](CCCNC(=N)N)C(=O)N[C@@H](CCCCN)C(=O)N[C@@H](CCCCN)C(=O)O — helicity (circular dichroism; 20% TFE in PBS; 200 µM, pH 7.4, 25 °C): 5.1%
CC(=O)N[C@H](CCNC(=O)c1cc(NC(=O)c2cc(NC(=O)c3cc(NC(=O)c4nccn4C)cn3C)cn2C)cn1C)C(=O)Nc1cn(C)c(C(=O)Nc2cc(C(=O)Nc3cc(C(=O)Nc4cc(C(=O)NCCCN(C)CCCN[14C](=O)c5cccc([14C](=O)O)c5)n(C)c4)n(C)c3)n(C)c2)n1 — tissue concentration ratio (NSG male mice, LNCaP xenograft, liver; intraperitoneal, 20 nmol per animal, 24 h; baseline: LNCaP-grafted over naive mice): ~2 fold
NC(=S)N/N=C/c1ccccn1 — peak current ratio ipa/ipc (cyclic voltammetry; DMF; Cu2+ complex): 0.21
